{"data": "Published values of several laboratories", "note": "Numbered parts are unrelated; each lists some results of a single study. Substitutions count along the parent as printed."}
{"data": "Study 1", "target": "Fragile X messenger ribonucleoprotein 1, C-terminal low-complexity region (Fmr1, Mus musculus, UniProt P35922)", "technique": "RNA Bind-n-Seq", "molecule type": "RNA", "medium": "in vitro", "tested at": "200 nM", "notes": "whole 134-nt RNA, ends assumed", "added": "150 mM LiCl", "reference": "input library", "direction": "higher = stronger binding", "all molecules": "7-deaza-guanosine replaces G", "shared flanks, not repeated": "GGGAGUUCUACAGUCCGACGAUC … UGGAAUUCUCGGGUGUCAAGG"}
{"Oligonucleotide": "CCUGUGCUACACAUCGUAUGUACCGAAUCGGGGAAAAAGGGGUUUUUUUGGGGAAAGGGGAAAGUAUUAUGUUACGCCGUUCGGAUCUGC", "log2 enrichment": -1.54}
{"Oligonucleotide": "AGUCCUGUGCUACACAUCGUAUGUACCGAAUCGGGUUUUUGGGGUUUUUGGUUUUUGGAAAGUAUUAUGUUACGCCGUUCGGAUCUGCAC", "log2 enrichment": -1.44}
{"Oligonucleotide": "UCAAGUCCUGUGCUACACAUCGUAUGUACCGAAUCGGAGGAAAGGUUUUUUUGGAAAGUAUUAUGUUACGCCGUUCGGAUCUGCACUUCC", "log2 enrichment": -0.34}
{"Oligonucleotide": "UGGUUUGAGUCCAGCCAAUGACACUGGAGCCAAAAAGAAGAAAAAGAAACAAAAAAAGAAGAAAGAAAAAGGCAGUGAGACAGAUUCAGC", "log2 enrichment": 1.24}
{"Oligonucleotide": "ACCAUGCAGGCGGGCAUCUUUGGGAAGUGGGGCAAGGGGGGGAUAGGGAGGGGGGUAACACUUUGGGAACAGGUGGUCCCAGGUCGUUUC", "log2 enrichment": 1.62}
{"Oligonucleotide": "UAACUUUAGAGGAGGAUCUGAUGGAUAUGGCAGUGGACGUGGAUUUGGGGGUGGCUAUAAUGGGUAUGGAGGAGGACCUGGAGGUGGCAA", "log2 enrichment": 0.435}
{"Oligonucleotide": "AGUCCUGUGCUACACAUCGUAUGUACCGAAUCGGGUUUUUGGGUUUUUGGGAAAGGGAAAGUAUUAUGUUACGCCGUUCGGAUCUGCACU", "log2 enrichment": -1.37}
{"data": "Study 2", "target": "Microphthalmia-associated transcription factor, full length (MITF, Homo sapiens, UniProt O75030-10, residues 1-413)", "technique": "protein-binding microarray", "molecule type": "double-stranded DNA, one strand shown", "medium": "in vitro", "tested at": "not given", "notes": "k-mer, scored over probes, only values ≥0.25", "direction": "higher = stronger binding", "Residues (chain)": "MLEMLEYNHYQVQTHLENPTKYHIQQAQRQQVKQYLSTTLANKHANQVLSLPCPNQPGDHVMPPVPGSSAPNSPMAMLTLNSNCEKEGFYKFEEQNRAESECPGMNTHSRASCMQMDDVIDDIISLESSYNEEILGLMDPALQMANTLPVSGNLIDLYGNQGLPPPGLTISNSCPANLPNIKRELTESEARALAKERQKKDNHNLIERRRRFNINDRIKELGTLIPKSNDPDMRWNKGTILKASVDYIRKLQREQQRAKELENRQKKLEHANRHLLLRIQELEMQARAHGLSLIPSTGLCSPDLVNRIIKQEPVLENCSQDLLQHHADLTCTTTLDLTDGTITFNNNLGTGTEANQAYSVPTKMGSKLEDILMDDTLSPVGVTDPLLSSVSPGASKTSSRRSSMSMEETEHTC"}
{"Oligonucleotide": "CAGGTGA", "E-score": 0.402}
{"Oligonucleotide": "CCCCTCC", "E-score": 0.321}
{"Oligonucleotide": "GTATGAC", "E-score": 0.272}
{"Oligonucleotide": "GGCGTGA", "E-score": 0.263}
{"Oligonucleotide": "AAGCACG", "E-score": 0.26}
{"Oligonucleotide": "TGTCACA", "E-score": 0.377}
{"Oligonucleotide": "CCTCGAG", "E-score": 0.251}
{"Oligonucleotide": "ACGTGGA", "E-score": 0.255}
{"Oligonucleotide": "GATGACC", "E-score": 0.269}
{"Oligonucleotide": "GCATGAC", "E-score": 0.428}
{"data": "Study 3", "target": "Interferon regulatory factor 5, full length, phosphomimetic (IRF5, Homo sapiens, UniProt Q13568-2, residues 1-514, S451D/S453D/S456D/S462D)", "technique": "protein-binding microarray", "molecule type": "double-stranded DNA, one strand shown", "medium": "in vitro", "tested at": "940 nM top", "notes": "60-bp whole probe", "added": "salmon DNA 0.4 mg/ml", "reference": "random background probes", "direction": "higher = stronger binding", "shared flanks, not repeated": "GCCTAGCAC … GTGCTAGGTCTTGATTCGCTTGACGCTGCTG"}
{"Oligonucleotide": "TCATGTGTGTGTATGTGACT", "fitted relative affinity [z-score]": 0.0195}
{"Oligonucleotide": "GACGGACTGCTTCTCCTCAC", "fitted relative affinity [z-score]": -0.266}
{"Oligonucleotide": "TTAGGTTTCCTCCTCCTTTA", "fitted relative affinity [z-score]": 1.45}
{"Oligonucleotide": "TCCCTATTATATATATCATA", "fitted relative affinity [z-score]": 1.38}
{"Oligonucleotide": "CTCTCTTCACATATAATTTT", "fitted relative affinity [z-score]": 1.31}
{"Oligonucleotide": "GACGATCTCAGTTTCGAGAC", "fitted relative affinity [z-score]": 4.32}
{"Oligonucleotide": "GACGATCTCAGTATCGAGAT", "fitted relative affinity [z-score]": 1.94}
{"Oligonucleotide": "TTTAGATTTTTTTTCCTAAT", "fitted relative affinity [z-score]": 0.8}
{"Oligonucleotide": "GACGGTATCGGTTTCGGGAG", "fitted relative affinity [z-score]": 9.23}
{"Oligonucleotide": "TCATTTTGGTTTCTGGTACT", "fitted relative affinity [z-score]": 4.74}
{"Oligonucleotide": "TCGTAAGCAAAAATGATTGG", "fitted relative affinity [z-score]": -0.297}
{"Oligonucleotide": "TTAGGTTCCCTGTTCCTTTA", "fitted relative affinity [z-score]": 0.169}
{"Oligonucleotide": "ACTCGTTTACATTTTCCAAA", "fitted relative affinity [z-score]": 1.04}
{"data": "Study 4", "target": "CCNF, cyclin fold, Cln2 fusion (human)", "technique": "yeast growth competition, sequencing", "medium": "yeast", "notes": "strong parent motif", "reference": "not given", "direction": "higher = stronger binding", "parent": "SCAPER docking peptide (human); SNARRSLNFGGST"}
{"Variant": "SWARRSLNFGGST [N2W]", "normalised enrichment score": 7.54}
{"Variant": "SNARRSLNQGGST [F9Q]", "normalised enrichment score": 0.92}
{"Variant": "SNARRSLNFGGSI [T13I]", "normalised enrichment score": 7.7}
{"Variant": "SNAHRSLNFGGST [R4H]", "normalised enrichment score": 2.92}
{"Variant": "SNARRSLNFGWST [G11W]", "normalised enrichment score": 7.82}
{"Variant": "SNARRSLNFGGSK [T13K]", "normalised enrichment score": 7.67}
{"Variant": "SNARRSLNWGGST [F9W]", "normalised enrichment score": 2.55}
{"Variant": "SNARPSLNFGGST [R5P]", "normalised enrichment score": -0.194}
{"Variant": "SNARRSLNFWGST [G10W]", "normalised enrichment score": 7.74}
{"Variant": "SNARRSLNFDGST [G10D]", "normalised enrichment score": 6.68}
{"Variant": "SNARRSKNFGGST [L7K]", "normalised enrichment score": 1.65}
{"Variant": "SNARRSLNFVGST [G10V]", "normalised enrichment score": 5.13}
{"Variant": "SNARRSLNLGGST [F9L]", "normalised enrichment score": 4.44}
{"data": "Study 5", "target": "ABI1, truncated, D143A, DHFR fusion (Arabidopsis thaliana)", "technique": "DHFR PCA, deep sequencing", "medium": "yeast", "notes": "methotrexate growth selection, single substitutions", "added": "(+)-ABA 0.39 µM", "reference": "wild-type fitted maximum", "direction": "higher = stronger binding", "parent": "PYL1, truncated, DHFR fusion (Arabidopsis thaliana); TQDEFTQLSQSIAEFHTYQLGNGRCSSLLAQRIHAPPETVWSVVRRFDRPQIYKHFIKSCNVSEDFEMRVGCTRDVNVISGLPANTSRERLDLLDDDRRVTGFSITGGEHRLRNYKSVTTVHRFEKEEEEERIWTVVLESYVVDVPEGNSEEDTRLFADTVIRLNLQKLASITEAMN"}
{"Variant": "R163D", "relative binding score": "-14.4%"}
{"Variant": "R155G", "relative binding score": "-28.6%"}
{"Variant": "V145R", "relative binding score": "-9.83%"}
{"Variant": "D3N", "relative binding score": "32%"}
{"Variant": "T135V", "relative binding score": "-7.84%"}
{"Variant": "N114V", "relative binding score": "-3.89%"}
{"Variant": "T106F", "relative binding score": "28.7%"}
{"Variant": "I79S", "relative binding score": "21.9%"}
{"Variant": "T86F", "relative binding score": "48%"}
{"Variant": "R90Y", "relative binding score": "-7.16%"}
{"Variant": "N77V", "relative binding score": "64.1%"}
{"Variant": "R46T", "relative binding score": "-3.53%"}
{"Variant": "S104T", "relative binding score": "54.8%"}
{"data": "Study 6", "target": "RING finger protein unkempt homolog, zinc fingers 1-6, GST-SBP tag (UNK, Homo sapiens, UniProt Q9C0B0, residues 30-357)", "technique": "RNA Bind-n-Seq", "molecule type": "RNA", "medium": "in vitro", "tested at": "not given", "notes": "RNA with constant flanks, human and mouse sites, ends assumed", "reference": "input RNA pool", "direction": "higher = stronger binding", "shared flanks, not repeated": "GGGAGUUCUACAGUCCGACGAUC … CAACAGAGGAUUGAGCAUCA", "chain of UniProt Q9C0B0 (30-357, looked up)": "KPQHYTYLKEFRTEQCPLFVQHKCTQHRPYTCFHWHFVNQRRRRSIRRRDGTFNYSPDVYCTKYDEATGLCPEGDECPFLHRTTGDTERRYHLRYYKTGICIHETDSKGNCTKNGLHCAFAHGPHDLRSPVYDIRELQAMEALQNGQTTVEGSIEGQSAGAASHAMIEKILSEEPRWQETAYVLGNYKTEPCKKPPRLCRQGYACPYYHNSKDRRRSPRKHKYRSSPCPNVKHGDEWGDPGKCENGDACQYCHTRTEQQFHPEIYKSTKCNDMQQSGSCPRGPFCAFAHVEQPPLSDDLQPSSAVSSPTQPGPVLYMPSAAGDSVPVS"}
{"Oligonucleotide": "UUAGGGUGCUCUUUGAGAGCAUAGUCUUAUAUCUGGGGACUAAAAUGUCAUUAGACCCUAAUAGACCAAGUUAUAUGUUUGUGUAGGAAAAAGGUUUCCUCUCUCGUUCAAGGUAAUUGU", "bound/input enrichment": "8.35 ratio"}
{"Oligonucleotide": "AGACAAUGUGCUGAAGACCUGCUACAGUUCUCUGCCAAUAUUCCUGCUCUUUACAAUAGUAAACAGCUUGAAGACUUUUUCAAGGGUGGAAUAAUUAAUGAUAGUUCUGAAUUAAUUGGU", "bound/input enrichment": "0.525 ratio"}
{"Oligonucleotide": "CCACAGCAGCUCCUUUGAUAAGUACCAUAUCCUCUGUACUACACACAGCUAAAUUAAUAUUGUUUCAUUUAACCAAACCCCCCCCCCAAAAAAAAGGUUGGCUAUCUCUCUUAAUAUUGC", "bound/input enrichment": "0.481 ratio"}
{"Oligonucleotide": "AAUUUACAGCCUCUUUCUGAAAGGCUGACACUUCUUGCCAUUUUCGUAUCAACUUUUCUCUUUAGCCUGACAUGGCAAUUUAACCAGUUCAUGAUGCUGCUGCAGGCACUGGUGCUGUUC", "bound/input enrichment": "0.457 ratio"}
{"Oligonucleotide": "UAUCUGGAACAAUUUGUUGGAGACCAAGAAGCCUGGCAUGAACUUGCAGAACUUUACAUCAAUGAACAUGACUAUGCAAAAGCAGCCUUUUGUUUAGAGGAACUAAUGAUGACUAAUCCA", "bound/input enrichment": "0.274 ratio"}
{"Oligonucleotide": "UGCUUUUGCUACCACUGGAAGUUCCUUCUGUUUCUUGUGGAGUACCUUUUGCUGUCUGGGACUUGUAGAUAAUGGUGUUUCCUAGGGCUCCCUCCAGGGCCCUCUGCCUCACUAACUGGA", "bound/input enrichment": "0.131 ratio"}
{"Oligonucleotide": "CACACACACACACACACACACACACACACACACACACACACACACACACACGGUGUUUCUAGAGAUCCAGUUGAGGACAUCUAGCAAGGGGAGUGACUGCCUCCCUUGGGCCAAGUUCCC", "bound/input enrichment": "0.398 ratio"}
{"Oligonucleotide": "AAGAAUCAGGAAUUUCAUAUAUAGUAUACAAUUUUGCUACUUCCCCUCUGUCUCAGACUGGCUUUCUCUUAAAGAAGUAAACAGAUUUUGCGCAAAGGAGCAAGGAAGGGUUUCUUGCCU", "bound/input enrichment": "2.37 ratio"}
{"Oligonucleotide": "GGACAGAACAGUAAACUAAGCAGACUGUGACCAUUGGCCUCCCACUAGCCAGGAUCAACUUAGCUCUCCUUUUGUGGUCCAUGUGCUGCAUCGUCUGCCAUCAGUGUGCAACCGGCCCCC", "bound/input enrichment": "3.61 ratio"}
{"data": "Study 7", "target": "Histone acetyltransferase KAT6A, winged helix 1, GST fusion (KAT6A, Homo sapiens, UniProt Q92794, residues 1-85)", "technique": "protein binding microarray", "molecule type": "double-stranded DNA, one strand shown", "medium": "in vitro", "tested at": "not given", "notes": "8-mer, flanks averaged, mean of 2 arrays, mostly near background", "reference": "not given", "direction": "higher = stronger binding", "Construct (chain)": "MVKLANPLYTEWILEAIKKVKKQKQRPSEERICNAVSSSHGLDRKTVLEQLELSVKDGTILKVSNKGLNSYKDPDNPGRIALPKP"}
{"Oligonucleotide": "AAGAGTTG", "E-score": -0.12}
{"Oligonucleotide": "ACTCTTCC", "E-score": -0.0544}
{"Oligonucleotide": "ACGATGTG", "E-score": -0.15}
{"Oligonucleotide": "AAGGTCAA", "E-score": -0.0615}
{"Oligonucleotide": "AGCGTTTA", "E-score": 0.178}
{"Oligonucleotide": "CGCGTGGA", "E-score": 0.253}
{"Oligonucleotide": "CATGCCGC", "E-score": 0.397}
{"Oligonucleotide": "CACTACCG", "E-score": 0.199}
{"Oligonucleotide": "ATGTTATA", "E-score": 0.00219}
{"Oligonucleotide": "GGTCCACC", "E-score": -0.0741}
{"Oligonucleotide": "GGTAGATA", "E-score": -0.0747}
{"Oligonucleotide": "AGAGGGCA", "E-score": -0.226}
{"Oligonucleotide": "GGAGCGCA", "E-score": 0.32}
{"Oligonucleotide": "CGCGGCCA", "E-score": 0.378}
{"Oligonucleotide": "AAGGAAAT", "E-score": -0.311}
{"Oligonucleotide": "CGCTTTAC", "E-score": 0.235}
